Published values collected from several papers.
Every numbered part comes from another study and shows a few of its results, in no order. “And” joins repeats or separate records; there may be more than shown. Changes are numbered by the printed parent chain.

Series 1 — target: CCNE1, cyclin fold, Cln2 fusion (human); method: yeast growth competition, sequencing; sample: yeast; notes: strong parent motif; relative to: not given; direction: higher = stronger binding; endpoint: normalised enrichment score
Starting sequence: BRCA2 docking peptide (human); PSIKRNLLNEFDR
MSIKRNLLNEFDR [P1M]: 1.03
TSIKRNLLNEFDR [P1T]: 1.5
QSIKRNLLNEFDR [P1Q]: 2.19
RSIKRNLLNEFDR [P1R]: 2.2
PSIKRNLLNEYDR [F11Y]: 0.901
PAIKRNLLNEFDR [S2A]: 1.08
PSIKRNLLQEFDR [N9Q]: 1.92
PSIKRNDLNEFDR [L7D]: 0.134

Series 2 — method: RNA Bind-n-Seq; form: RNA; sample: in vitro; concentration: 200 nM; notes: whole 134-nt RNA, ends assumed; with: 150 mM KCl; relative to: input library; direction: higher = stronger binding; endpoint: log2 enrichment
Target: Ras GTPase-activating protein-binding protein 1, full length (G3BP1, Homo sapiens, UniProt Q13283)
Chain of UniProt Q13283 (whole entry, looked up): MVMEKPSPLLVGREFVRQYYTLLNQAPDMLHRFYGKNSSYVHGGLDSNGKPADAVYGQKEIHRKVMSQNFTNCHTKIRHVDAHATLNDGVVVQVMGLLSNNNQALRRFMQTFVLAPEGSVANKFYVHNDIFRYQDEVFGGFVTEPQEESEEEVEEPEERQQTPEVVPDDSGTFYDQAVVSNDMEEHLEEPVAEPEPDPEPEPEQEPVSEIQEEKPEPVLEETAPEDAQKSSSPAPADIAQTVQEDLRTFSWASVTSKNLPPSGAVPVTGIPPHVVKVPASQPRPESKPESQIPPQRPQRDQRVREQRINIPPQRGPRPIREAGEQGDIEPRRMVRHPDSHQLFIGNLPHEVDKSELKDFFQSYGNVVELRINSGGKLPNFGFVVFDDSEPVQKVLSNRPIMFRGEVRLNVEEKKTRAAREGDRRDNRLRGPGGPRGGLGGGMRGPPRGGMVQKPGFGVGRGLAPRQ
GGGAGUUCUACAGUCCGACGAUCCAAGUCCUGUGCUACACAUCGUAUGUACCGAAUCGGGCCCCGGCCCCGGCCCCGGAAAGUAUUAUGUUACGCCGUUCGGAUCUGCACUUCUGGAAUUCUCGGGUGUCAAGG: -0.943
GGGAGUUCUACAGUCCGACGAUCUGGGAGCUGGAUUUUGUUUAUUUUUUUAGCUCAUUUCCAGGGGUGGGAAUUUUUUUUUAAUAUGUGUCAUGAAUAAAGUUGUUUUUGAAAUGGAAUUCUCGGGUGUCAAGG: -0.746
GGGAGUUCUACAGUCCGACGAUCUAACUUUAGAGGAUGAUCUGAUGGAUAUGGCAGUGGACGUGGAUUUGGGGAUGGCUAUAAUGGGUAUGGAGGAGGACCUGGAGGUGGCAAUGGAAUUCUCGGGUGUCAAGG: 0.353
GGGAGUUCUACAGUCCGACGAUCUCAAGUCCUGUGCUACACAUCGUAUGUACCGAAUCGGGCCGGGCCGGGGCCGGGGAAAGUAUUAUGUUACGCCGUUCGGAUCUGCACUUCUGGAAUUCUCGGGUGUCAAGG: 0.266
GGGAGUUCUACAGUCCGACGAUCCAAGUCCUGUGCUACACAUCGUAUGUACCGAAUCGGGAAAGGGGAAAGGGAAAGGGAAAGUAUUAUGUUACGCCGUUCGGAUCUGCACUUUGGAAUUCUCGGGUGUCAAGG: 0.56
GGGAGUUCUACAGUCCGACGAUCUUCCCCACUUCCUUCCCUCCAGUCCCCACUCACUCACAUGCACACACUAACCUUGGAGCCGAUGGGAUUGAGUGACUGGCACUUGGGACCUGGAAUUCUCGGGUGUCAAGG: 1.26

Series 3 — method: universal PBM; form: double-stranded DNA, one strand shown; sample: in vitro; concentration: not given; direction: higher = stronger binding; endpoint: E-score
Target: Sal-like protein 4, full length isoform B (SALL4, Homo sapiens, UniProt Q9UJQ4-2, residues 1-616)
Notes: 8-mer, flanks averaged, mean of replicates
CAGCACGG: -0.174
AATATCTG: 0.284
AAACCTAA: 0.0575
ATACTGGC: -0.0392
AGCTTACC: -0.0961
CAAACTTA: 0.175
GTTTACGA: 0.0113

Single results of other studies
PhoQ, residues 284 288 289 292 302 303 AANNSF — fold induction (PhoP, residues 12 14 15 18 19 LWHCS (Escherichia coli, UniProt P23836); Sort-seq, refers to: YFP reporter; E. coli; PhoQ-PhoP variant library, with: 10 µM Mg2+; relative to: high Mg2+ state, higher = stronger signaling): 17.2 and 10.7

Repeated from above (series 3):
CAGCACGG: -0.174
GTTTACGA: 0.0113
AGCTTACC: -0.0961
